Measured values pooled from the literature.
A part holds a random share of what one study measured.
Sequence of UniProt P00519 (whole entry, unmodified, looked up): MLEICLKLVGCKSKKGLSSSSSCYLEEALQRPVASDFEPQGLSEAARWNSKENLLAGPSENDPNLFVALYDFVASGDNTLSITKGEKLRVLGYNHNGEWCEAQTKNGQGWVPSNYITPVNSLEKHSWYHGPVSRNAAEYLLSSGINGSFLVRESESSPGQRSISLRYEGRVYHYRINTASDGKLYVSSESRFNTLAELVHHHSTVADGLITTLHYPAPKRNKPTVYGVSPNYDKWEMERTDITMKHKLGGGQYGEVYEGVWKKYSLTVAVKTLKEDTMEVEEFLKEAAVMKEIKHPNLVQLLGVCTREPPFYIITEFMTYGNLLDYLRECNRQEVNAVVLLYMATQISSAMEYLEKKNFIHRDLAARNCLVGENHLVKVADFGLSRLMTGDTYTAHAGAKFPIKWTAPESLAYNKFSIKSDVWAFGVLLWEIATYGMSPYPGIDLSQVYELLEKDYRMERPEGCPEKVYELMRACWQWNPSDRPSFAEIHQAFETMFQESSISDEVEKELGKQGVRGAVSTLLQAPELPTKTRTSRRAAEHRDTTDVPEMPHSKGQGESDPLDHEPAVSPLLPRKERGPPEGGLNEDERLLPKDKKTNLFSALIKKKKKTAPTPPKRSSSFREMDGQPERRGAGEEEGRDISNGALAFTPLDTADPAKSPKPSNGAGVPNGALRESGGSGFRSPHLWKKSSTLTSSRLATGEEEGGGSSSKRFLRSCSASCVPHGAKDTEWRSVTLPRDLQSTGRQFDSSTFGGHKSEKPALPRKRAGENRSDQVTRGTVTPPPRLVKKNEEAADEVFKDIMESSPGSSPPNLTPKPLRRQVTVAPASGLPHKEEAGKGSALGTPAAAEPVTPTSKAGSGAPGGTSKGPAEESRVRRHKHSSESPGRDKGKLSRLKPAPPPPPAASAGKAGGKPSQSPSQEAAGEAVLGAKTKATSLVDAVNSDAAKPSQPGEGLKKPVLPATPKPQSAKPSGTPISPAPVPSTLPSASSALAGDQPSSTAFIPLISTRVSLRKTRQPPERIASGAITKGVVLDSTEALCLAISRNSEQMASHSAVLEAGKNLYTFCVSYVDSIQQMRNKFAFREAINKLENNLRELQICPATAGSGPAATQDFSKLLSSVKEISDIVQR
Sequence of UniProt Q14289 (whole entry, looked up): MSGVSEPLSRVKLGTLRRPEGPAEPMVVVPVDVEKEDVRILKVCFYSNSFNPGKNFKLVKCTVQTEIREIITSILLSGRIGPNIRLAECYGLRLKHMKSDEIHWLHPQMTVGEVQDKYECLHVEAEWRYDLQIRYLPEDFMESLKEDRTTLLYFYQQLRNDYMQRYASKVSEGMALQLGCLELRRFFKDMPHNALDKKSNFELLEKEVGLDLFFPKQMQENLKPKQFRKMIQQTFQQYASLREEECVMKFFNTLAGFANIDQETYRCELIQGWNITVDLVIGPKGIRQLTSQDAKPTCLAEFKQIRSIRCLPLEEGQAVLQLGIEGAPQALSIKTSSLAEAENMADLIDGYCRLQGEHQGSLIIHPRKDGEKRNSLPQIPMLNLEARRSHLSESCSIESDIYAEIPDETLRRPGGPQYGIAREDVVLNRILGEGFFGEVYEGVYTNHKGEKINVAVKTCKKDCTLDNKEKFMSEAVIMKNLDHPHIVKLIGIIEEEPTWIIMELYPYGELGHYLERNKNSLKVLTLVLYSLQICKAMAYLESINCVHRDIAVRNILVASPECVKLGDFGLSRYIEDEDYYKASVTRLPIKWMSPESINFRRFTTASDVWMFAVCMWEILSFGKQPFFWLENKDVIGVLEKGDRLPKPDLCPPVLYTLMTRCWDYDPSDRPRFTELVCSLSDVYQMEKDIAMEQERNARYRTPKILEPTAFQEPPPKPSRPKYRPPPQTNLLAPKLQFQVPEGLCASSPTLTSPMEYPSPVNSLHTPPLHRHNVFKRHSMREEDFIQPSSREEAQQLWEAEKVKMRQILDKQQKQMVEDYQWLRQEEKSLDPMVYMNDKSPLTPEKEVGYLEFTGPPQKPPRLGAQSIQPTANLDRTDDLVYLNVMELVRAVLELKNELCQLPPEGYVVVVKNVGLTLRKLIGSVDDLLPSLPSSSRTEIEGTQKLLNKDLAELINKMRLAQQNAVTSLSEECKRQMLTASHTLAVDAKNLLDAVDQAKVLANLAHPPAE
Sequence of UniProt P29317 (whole entry, looked up): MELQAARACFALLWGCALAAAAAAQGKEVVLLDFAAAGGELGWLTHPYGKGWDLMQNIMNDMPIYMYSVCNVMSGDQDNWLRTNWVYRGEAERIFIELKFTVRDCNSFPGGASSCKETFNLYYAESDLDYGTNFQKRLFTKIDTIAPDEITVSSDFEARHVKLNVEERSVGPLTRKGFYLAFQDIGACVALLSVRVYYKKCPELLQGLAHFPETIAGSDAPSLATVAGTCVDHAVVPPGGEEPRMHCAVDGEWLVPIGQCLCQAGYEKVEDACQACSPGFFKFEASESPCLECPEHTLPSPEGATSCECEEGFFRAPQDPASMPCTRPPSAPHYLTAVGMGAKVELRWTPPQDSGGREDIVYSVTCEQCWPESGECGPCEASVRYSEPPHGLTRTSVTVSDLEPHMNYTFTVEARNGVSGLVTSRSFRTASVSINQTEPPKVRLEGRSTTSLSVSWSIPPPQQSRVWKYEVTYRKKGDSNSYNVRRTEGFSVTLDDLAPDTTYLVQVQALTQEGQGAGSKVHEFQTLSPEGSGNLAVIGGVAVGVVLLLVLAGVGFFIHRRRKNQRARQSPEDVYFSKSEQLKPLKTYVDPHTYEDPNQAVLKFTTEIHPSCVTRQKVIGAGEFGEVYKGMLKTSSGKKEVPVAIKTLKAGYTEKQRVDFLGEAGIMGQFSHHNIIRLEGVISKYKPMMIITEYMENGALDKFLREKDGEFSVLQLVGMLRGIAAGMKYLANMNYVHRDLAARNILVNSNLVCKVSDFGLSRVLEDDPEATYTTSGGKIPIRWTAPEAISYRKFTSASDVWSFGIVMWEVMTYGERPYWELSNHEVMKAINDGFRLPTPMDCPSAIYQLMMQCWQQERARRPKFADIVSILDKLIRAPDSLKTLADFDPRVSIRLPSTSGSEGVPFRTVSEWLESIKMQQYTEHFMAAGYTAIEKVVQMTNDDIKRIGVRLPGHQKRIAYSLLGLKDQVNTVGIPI
Sequence of UniProt O94768 (whole entry, looked up): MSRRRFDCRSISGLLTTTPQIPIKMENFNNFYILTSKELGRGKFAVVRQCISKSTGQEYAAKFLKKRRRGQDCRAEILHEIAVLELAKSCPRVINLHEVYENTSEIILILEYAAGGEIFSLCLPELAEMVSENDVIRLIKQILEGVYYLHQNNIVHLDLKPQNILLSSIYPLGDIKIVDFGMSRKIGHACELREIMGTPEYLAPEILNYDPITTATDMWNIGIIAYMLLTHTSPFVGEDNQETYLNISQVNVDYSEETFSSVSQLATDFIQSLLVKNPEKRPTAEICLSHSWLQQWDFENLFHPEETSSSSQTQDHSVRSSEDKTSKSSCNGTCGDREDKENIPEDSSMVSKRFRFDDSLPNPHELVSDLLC

Set 1 — technique: EMSA with sequencing; molecule type: double-stranded DNA, one strand shown; matrix: in vitro; tested at: 10 and 20 nM; relative to: negative control set to 0; reading: higher = stronger binding; endpoint: normalised bound fraction
Target: Hepatocyte nuclear factor 3-alpha (Foxa1, Mus musculus, UniProt P35582, residues 1-468, full length assumed)
Setting: whole designed probe, mean of two concentrations, ends assumed
Shared flanks, not repeated: GTGAGCGGTGCCCATTGATGGGGAAC … TTTCACTGGGATCGTGGGGAC
Construct (chain): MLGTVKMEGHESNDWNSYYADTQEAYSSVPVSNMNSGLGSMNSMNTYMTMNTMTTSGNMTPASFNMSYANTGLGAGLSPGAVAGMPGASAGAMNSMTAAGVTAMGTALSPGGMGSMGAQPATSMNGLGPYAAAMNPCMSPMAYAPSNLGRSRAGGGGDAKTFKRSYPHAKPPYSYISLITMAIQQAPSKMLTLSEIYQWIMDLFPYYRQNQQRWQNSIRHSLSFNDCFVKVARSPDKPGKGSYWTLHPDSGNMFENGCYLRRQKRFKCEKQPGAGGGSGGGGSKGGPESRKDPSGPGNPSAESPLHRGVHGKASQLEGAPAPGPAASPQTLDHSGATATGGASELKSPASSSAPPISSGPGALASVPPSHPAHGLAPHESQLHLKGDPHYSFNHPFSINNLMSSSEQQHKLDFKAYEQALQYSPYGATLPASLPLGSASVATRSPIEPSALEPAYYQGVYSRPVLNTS
GTGAGCCACTGCGCCCAGCCCATAAATCCTTTTATAAGCTTAAAAAAAATTTCTTTTTTCTCTCCTGTATATTACTATGTTTTATATTTTAAGTAATCTAGAATATACCTATGAATACTGTACTCAATTTAAAGTAATCTACCATCAATTGCATTACTTCCAAATTAAATTTAAATGTCAGTTTAATTAATGA: -0.0421 ratio
GTTCCACTCACAGCTTGACAAGTGAACTCTTTGTCAATGACAAGGCAAAGGTTAATGATTAACAGGCACTGTATTTACCAACTTAGGAACTAAATAAACAGAATCCAGACAGGATACCATTAAGAGTTGCAGCATCACCAAAAATATCTGGCTGATTGACTGAATGTCGTCGCTTTTCTTTTTCTTTTTTTGA: 0.448 ratio
AGGTGAATTGGCTGCTTCCATCCTGGCTTGGAACTTCAGACATAGAAGCCTTGGGACTTTCTCAGGCTGACTCATGCACTTTCTCCAGATTCAGCAAACAAGCATCTCTGTGGATCACGTGACCTTAGCCAGGGATGTTGGTGAAACTGTGTGTTGGTCTAGGTACCTAGCCCATGCTAGGTGCTCATCGAAT: 0.0534 ratio
CTTTGAGTTTTCAGAGTGACTCAACACAGTTGAACTATGAATCACTTCAGTATTGTCTGTGCACACCAAAGCCCTGGCATATGGAGCAGGACTGTACACAAGAAAGCTCTTTCCCAGCCCTGAGCTCTCAGAGCTTTCCCTAGGTGTGTGATGAGGCCACTTTCCCCCATCACTTCCCCAAGTCTAGATGTCC: -0.011 ratio
TGCAAAGCAGCCTATTTTTTCTTCAATAAAAATTGTTAAGAGAAGTGTGTGTGTCATCTGCAGCACAGCTGTGGGAGGAGTGAGAGGGGTCTTGTTTACACAGTCACCAGCCCTGGCTGACTAGAGCAGAAGAGGGATTTGCTGGCAGAATATCAGTCAACCCTGCCAATGTCTAGTTAGTCTGGAGAACCTG: 0.441 ratio
ACTACCATAGTTCCTATATACATATATGCCTCTTTCCCAATGCAAGTATGATATACTTTTATTTTGTTATTTGGTTTTCTATCTTTGATTTACATGTTTACACTGACATTTTTTAAGACTCTATTTGCTTAAGGTACAAAAAAATGTATTATTTACTGCAATCTCAACTATTAAAGCTAAAGCATTTCGAAAG: 0.413 ratio
CTGAATCCGCCTTCTGTCCCACACCCAACTCCTGCTCTGCCTCTGCAGCCACCTGCAGGCTCTCAGCGCACTCCTCAAAATCTATTTCTGCTGAGATTACCCAACACCACCTGCAGGAAACTCCCTTGAAATTCCCAGGCCTTTCCCAGAGTTCCTCAGTTCCTTTTCTTAAAATTCCTGCTGTCCCCAAAGA: -0.0805 ratio
TTCTGGGCCCAAAATTCAGGTAAACAATTGCATTTCCACTTGGAATACAAATACTTCATAACTTCAGAATTCATTACCTCTTGTACCTAGTACATGTTTACTCTGTCAGTTACAACCTTTTGAAAATTTAATTCAAAAATTTTCTGTTAGAACTGAAATTCATGGACTTTCCGTGTCTTTGGATTAATTTTAC: 0.274 ratio

Set 2 — effect on: enzyme activity; mode: inhibitor; tested at: 0.5 µM; relative to: control; endpoint: remaining activity
Target: Serine/threonine-protein kinase haspin (HASPIN, Homo sapiens, UniProt Q8TF76)
Residues (Q8TF76 1-798): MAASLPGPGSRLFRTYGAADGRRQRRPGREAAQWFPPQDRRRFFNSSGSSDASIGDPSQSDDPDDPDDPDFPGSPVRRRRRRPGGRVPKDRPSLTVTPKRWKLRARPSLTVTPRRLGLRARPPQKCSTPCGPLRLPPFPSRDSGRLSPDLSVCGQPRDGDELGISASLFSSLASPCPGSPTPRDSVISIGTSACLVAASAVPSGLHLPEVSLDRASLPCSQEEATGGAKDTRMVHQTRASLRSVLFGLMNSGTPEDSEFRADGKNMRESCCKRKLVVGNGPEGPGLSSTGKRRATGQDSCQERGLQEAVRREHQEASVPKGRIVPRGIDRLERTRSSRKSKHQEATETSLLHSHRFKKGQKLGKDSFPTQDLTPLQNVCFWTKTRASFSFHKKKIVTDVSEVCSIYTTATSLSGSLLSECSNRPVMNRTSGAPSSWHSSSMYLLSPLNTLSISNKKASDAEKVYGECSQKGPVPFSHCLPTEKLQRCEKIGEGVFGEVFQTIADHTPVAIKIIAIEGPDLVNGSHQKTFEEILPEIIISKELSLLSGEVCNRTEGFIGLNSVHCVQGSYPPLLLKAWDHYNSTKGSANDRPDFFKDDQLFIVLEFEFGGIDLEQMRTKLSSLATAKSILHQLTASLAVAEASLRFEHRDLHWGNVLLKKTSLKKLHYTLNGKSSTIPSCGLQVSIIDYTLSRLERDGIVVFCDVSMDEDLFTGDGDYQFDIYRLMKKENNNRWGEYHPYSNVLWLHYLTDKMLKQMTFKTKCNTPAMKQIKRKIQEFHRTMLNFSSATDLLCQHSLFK
Cc1ccc(NC(=O)c2ccc(CN3CCN(C)CC3)cc2)cc1Nc1nc(-c2cccnc2)cs1: 100%
Nc1[nH]nc2nc3ccccc3nc12: 82.1%
Oc1ccc(-c2nc(-c3ccncc3)c(-c3ccc(F)cc3)[nH]2)cc1: 86.9%
C#Cc1cccc(Nc2ncnc3cc(OCCOC)c(OCCOC)cc23)c1: 80.9%
COc1cc2ncnc(Nc3ccc(F)c(Cl)c3)c2cc1OCCCN1CCOCC1: 84%
N#CC(C#N)=C(N)/C(C#N)=C/c1ccc(O)cc1: 90.1%
Cc1nc(-c2ccccc2)c(-c2ccncc2)o1: 87.6%
COc1ccc(CNC(=O)Nc2ncc([N+](=O)[O-])s2)cc1: 90%
CO[C@H]1C[C@@H]2CC[C@@H](C)[C@@](O)(O2)C(=O)C(=O)N2CCCC[C@H]2C(=O)O[C@H]([C@H](C)C[C@@H]2CC[C@@H](O)[C@H](OC)C2)CC(=O)[C@H](C)/C=C(\C)[C@@H](O)[C@@H](OC)C(=O)[C@H](C)C[C@H](C)/C=C/C=C/C=C/1C: 103%
O=C(Nc1cccc(Nc2cc(Nc3cccc(C(F)(F)F)c3)ncn2)c1)C1CC1: 96.4%
CNC(=O)c1cc(Oc2ccc(NC(=O)Nc3ccc(Cl)c(C(F)(F)F)c3)cc2)ccn1: 99.3%
O=C1NC(=O)C(c2cn(CCCO)c3ncccc23)=C1c1cnccn1: 91.9%
O=C1NC(=O)C(c2cn(CCCn3ccnc3)c3ccccc23)=C1Nc1ccccc1: 95.8%
CC(C)[C@H](CO)Nc1nc(Nc2cc(N)cc(Cl)c2)c2ncn(C(C)C)c2n1: 99.9%

Set 3 — target: UBE2L3 UBC core domain (UniProt P68036); technique: yeast two-hybrid; matrix: yeast; setting: mostly zero background; relative to: not given; reading: higher = stronger interaction; endpoint: lacZ reporter activity
Sequence of UniProt P68036 (whole entry, looked up): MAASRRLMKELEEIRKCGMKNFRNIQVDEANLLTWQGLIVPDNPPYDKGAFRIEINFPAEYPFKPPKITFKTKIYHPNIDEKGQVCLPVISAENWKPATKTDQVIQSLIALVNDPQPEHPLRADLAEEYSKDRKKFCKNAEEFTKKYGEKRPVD
B1: RNF208 RING domain (UniProt Q9H0X6); chain SSAAAGEPLECPTCGHSYNVTQRRPRVLSCLHSVCEQCLQILYESCPKYKFISCPTCRRETVLFTDYG
B2: TRIM24 RING domain (UniProt O15164); chain EAARLNLLDTCAVCHQNIQSRAPKLLPCLHSFCQRCLPAPQRYLMLPAPMLGSAETPPPVPAPGSPVSGSSPFATQVGVIRCPVCSQECAERHII
B3: SH3RF2 RING domain (UniProt Q8TEC5); chain DDLTLLDLLECPVCFEKLDVTAKVLPCQHTFCKPCLQRVFKAHKELRCPECRTPVFSNIEAL
B4: TRIM5 RING domain (UniProt Q9C035); chain ILVNVKEEVTCPICLELLTQPLSLDCGHSFCQACLTANHKKSMLDKGESSCPVCRISYQPENIRP
B5: RNF38 RING domain (UniProt Q9H0F5); chain PNNHQSEQTLCVVCMCDFESRQLLRVLPCNHEFHAKCVDKWLKANRTCPICRADASEVHRDS
B6: DTX4 RING domain (UniProt Q9Y2E6); chain QKVRHPPDEDCTICMERLTAPSGYKGPQPTVKPDLVGKLSRCGHVYHIYCLVAMYNNGNKDGSLQCPTCKTIYGVKTGTQ
B1 (RNF208 RING domain): 0
B2 (TRIM24 RING domain): 0
B3 (SH3RF2 RING domain): 0
VEPSEENSKDCVVCQNGTVNWVLLPCRHTCLCDGCVKYFQQCPMCRQFVQESFALC (CGRRF1 RING domain (UniProt Q99675)): 0
B4 (TRIM5 RING domain): 0
PAELEVQASECVVCLEREAQMIFLNCGHVCCCQQCCQPLRTCPLCRQDIAQRLRIY (LRSAM1 RING domain (UniProt Q6UWE0)): 0
B5 (RNF38 RING domain): 0
B6 (DTX4 RING domain): 0

Set 4 — tested at: 1 µM; endpoint: remaining binding
Structure (SMILES): COc1cccc(CNC(=O)c2nc3scc(COCc4ccc(C(=O)O)cc4)c3c(=O)[nH]2)c1
STK17B (Homo sapiens, UniProt O94768); cell-free assay, competition with immobilised ligand: 94.4%
PTK2B (Homo sapiens, UniProt Q14289); cell-free assay, competition with immobilised ligand: 85.3%
Tyrosine-protein kinase ABL1, phosphorylated (ABL1, Homo sapiens, UniProt P00519, F317I); binding: 62.4%
EPHA2 (Homo sapiens, UniProt P29317); cell-free assay, competition with immobilised ligand: 100%
